Results pooled from the literature.
Each numbered part is a random draw from the data of one study; scales do not carry over between parts.

Block 1
Target: Sal-like protein 4, full length isoform A (SALL4, Homo sapiens, UniProt Q9UJQ4, residues 1-1053)
Chain of UniProt Q9UJQ4 (whole entry, looked up): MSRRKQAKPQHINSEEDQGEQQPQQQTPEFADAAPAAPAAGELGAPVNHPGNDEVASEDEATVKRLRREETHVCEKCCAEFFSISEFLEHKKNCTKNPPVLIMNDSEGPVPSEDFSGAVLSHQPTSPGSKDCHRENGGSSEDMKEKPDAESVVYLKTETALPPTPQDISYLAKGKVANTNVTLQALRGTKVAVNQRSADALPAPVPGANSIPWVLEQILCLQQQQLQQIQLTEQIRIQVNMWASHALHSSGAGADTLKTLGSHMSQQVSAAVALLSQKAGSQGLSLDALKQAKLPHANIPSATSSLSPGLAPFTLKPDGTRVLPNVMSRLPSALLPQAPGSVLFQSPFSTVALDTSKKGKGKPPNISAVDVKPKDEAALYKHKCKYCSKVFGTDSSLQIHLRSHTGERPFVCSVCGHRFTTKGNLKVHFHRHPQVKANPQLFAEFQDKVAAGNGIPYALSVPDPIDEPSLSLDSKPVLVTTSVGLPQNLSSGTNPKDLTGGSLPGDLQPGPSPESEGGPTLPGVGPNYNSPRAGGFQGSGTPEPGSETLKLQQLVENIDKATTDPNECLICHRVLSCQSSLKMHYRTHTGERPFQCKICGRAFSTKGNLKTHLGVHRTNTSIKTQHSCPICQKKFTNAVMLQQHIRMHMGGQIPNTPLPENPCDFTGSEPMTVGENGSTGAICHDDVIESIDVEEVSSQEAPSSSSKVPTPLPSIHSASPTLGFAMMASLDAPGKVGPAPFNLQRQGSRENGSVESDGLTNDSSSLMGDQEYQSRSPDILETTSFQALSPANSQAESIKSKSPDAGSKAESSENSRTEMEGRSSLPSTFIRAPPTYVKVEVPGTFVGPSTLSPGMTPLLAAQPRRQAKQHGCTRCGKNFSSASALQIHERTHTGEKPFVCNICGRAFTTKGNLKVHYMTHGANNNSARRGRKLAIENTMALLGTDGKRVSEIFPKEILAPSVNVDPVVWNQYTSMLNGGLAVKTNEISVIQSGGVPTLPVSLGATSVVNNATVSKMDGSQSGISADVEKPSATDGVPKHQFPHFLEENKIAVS
Method: universal PBM
Molecule type: double-stranded DNA, one strand shown
Matrix: in vitro
Tested at: 600 nM
Setting: 8-mer, flanks averaged, mean of replicates
Reading: higher = stronger binding
Quantity: E-score
TCGCGAGA: -0.0507
CCGGGTCA: -0.296
AATAAGCG: 0.158
AGTTACAG: 0.0414
GATGATGC: -0.0396
CGGTCAAG: -0.204
AGTGCAAG: 0.00171
ACATAGCA: 0.201
CCCCCCAA: -0.301
AAAAACTT: 0.326
CAATTCTG: 0.0157
CCTGAGAA: 0.0626
ATTTATCG: 0.248
ACTCTGGC: -0.313
AGGCACGC: -0.376
GTTAATGA: 0.251
CATGACAG: -0.0376
AGCGACCT: -0.171
CGGGACAA: -0.0765
GGCTTGAA: 0.00249
AAAACACC: -0.0461
TCTCGAAA: 0.0148
ACATAATC: 0.255

Block 2
Target: RNA binding protein fox-1 homolog 2, RRM domain, GST-SBP tag (RBFOX2, Homo sapiens, UniProt O43251-10, residues 100-194)
Method: RNA Bind-n-Seq
Molecule type: RNA
Matrix: in vitro
Tested at: 365 nM
Setting: natural RNA segment, single round, ends assumed
Baseline: no-protein control
Reading: higher = stronger binding
Quantity: RBNS enrichment (R)
Construct (chain): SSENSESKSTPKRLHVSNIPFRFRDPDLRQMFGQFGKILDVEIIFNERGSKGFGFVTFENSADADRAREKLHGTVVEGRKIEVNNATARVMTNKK
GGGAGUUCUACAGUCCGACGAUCUAAUCAGAUGCCAUUUUAUAUGUGGACGUAUUUAUACUGGCCAAACAGUUUUCUUAUUUUGUCCCCCCUUUUUUUCCCUUUUCAUUUGCUUUCUUGUCUUUUAACCUCGUUGGAAUUCUCGGGUGCCAA: 1.2
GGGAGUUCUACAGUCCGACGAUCGCUUGCAUUAUUGAUUUCCAGGACCAAGUCCUGGCUUCCUCCUGCCUUCCUGAGAUGAUGUUCUGCUCAGGGAGAAGUGGAGGGGUGAGCUGUGUGUGUCCACCGAGGCAUGGAAUUCUCGGGUGCCAA: 6.12
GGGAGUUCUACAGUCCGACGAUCAAUGCCUUUAAUUCUUGUCUGAGAAUCUUGGCCAUGUGUCAGAUUAUCAGAACAAUUUUGUUACCAGGUCAGAAAUUGUGUUCUUUGACAACAGAUUGGAUCUGUAAUGUUGGAAUUCUCGGGUGCCAA: 0.299
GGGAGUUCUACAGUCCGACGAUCCCUAGGGUGCCACUGAAUAAGAGACAGUAGAGAGCCCUGUCCUCUGGGGAUACAGCACCUGCUUCACCGCUGCCUCGUGUGUGUGAAGACCAAGGAGACCCCCAAGGGUAUGGAAUUCUCGGGUGCCAA: 0.377
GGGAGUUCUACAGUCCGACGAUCGAUCUCUUUGGCAAUUGUUCUCUGCCAGAGUCUUAAGUAUGUGUCUUUGAUACUCCUUGAAAAUUAAAACUAAGUACACCCUAUUGCUCUUCAGCUCCCAGAAACUUACGUGGAAUUCUCGGGUGCCAA: 1.24
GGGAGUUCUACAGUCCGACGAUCUGAAAAAGAAAACAUAGGUCUCUUAAACCAGGCAGCAUCCACAUUCUGGAAGUUGAUAGUGAACAGUUCUCCGUGUAACAGUGACUCUCCAUGAAAUUCCGUUUCCUCUGUGGAAUUCUCGGGUGCCAA: 0.228
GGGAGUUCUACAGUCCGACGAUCCGACAUGGCGAAGGCAAGGUCUUCCCCCAGAGGCACAUUCCUCUCCAUCUUUCCACCGCACACCUGGACCAGGCUUGCAGGCUGCCAGACGUCACUCCACCCGCCAGGGAUGGAAUUCUCGGGUGCCAA: 0.363
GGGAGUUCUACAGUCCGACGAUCGACCGGUUGGAAGUAGAAGAAACAUCUCUCCCUGCACCCGAAUGUCCAGUGGAGCCUCAAGUUUUCCAUCCUGCUGUUAAGUUACUUUCAAAUAGUUUAAUGUUUUAGUCUGGAAUUCUCGGGUGCCAA: 0.895
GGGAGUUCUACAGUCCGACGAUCGUGUAUAUAUAUAUAUAUAUAUAUAUAUAGCCACACAUGAUCAUACUUAUAUAUGAUGUUUCCAUAUAUGUGCUGUGUGUUUAAGUUUUGUAUCAUCCAGACUGAUACCAUGGAAUUCUCGGGUGCCAA: 0.573
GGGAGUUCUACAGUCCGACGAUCUUCAAGCUCAAACACCACCUCCCUUAUUCAGGACCGGCACUUCUUAAUGUUUGUGGCUUUCUCUCCAGCCUCUCUUAGGAGGGGUAAUGGUGGAGUUGGCAUCUUGUAACUGGAAUUCUCGGGUGCCAA: 0.36
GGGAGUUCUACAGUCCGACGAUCGCUGAGAUGAUUGAACUGAAAGUUCCCAUAGCGUGGAUGAAACCGAGCAGCAGAGCAGCAGGACAUGGCCAACAAAGCGUGCUUUCUGAGGACGUGGAGAGUGGCAGUGAUGGAAUUCUCGGGUGCCAA: 0.457
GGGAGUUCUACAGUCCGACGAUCCUUGCUUUUGCUUCUUUUCUUUUGAGACAUGUACCCUUUCUGAUUGGAUAAUUGAUGUUUAGCCAAGGCUGGCCUCAAAAUACUAGUAAUCUUUCUGUAAGCCUCUCAAGUGGAAUUCUCGGGUGCCAA: 0.447

Block 3
Target: Prothrombin, mature alpha-thrombin (F2, Homo sapiens, UniProt P00734)
Method: aptamer microarray, sandwich
Molecule type: DNA with 2'F-ANA
Matrix: in vitro
Tested at: 200 nM
Setting: whole 15-mer aptamer, many near background
Together with: Cy3 exosite-II aptamer, 400 nM
Reading: higher = stronger binding
Quantity: mean fluorescence intensity
Strand: GGTTGGTGTGGTTGG
2'F-ANA at 1 2 3 7 11 14: 71.9 a.u.
2'F-ANA at 2 3 4 5 8 9 12 13 15: 192 a.u.
2'F-ANA at 1 2 4 6 8 9 13 14 15: 47 a.u.
2'F-ANA at 1 2 4 5 8 13 14 15: 46 a.u.
2'F-ANA at 1 5 6 8 11 15: 54.4 a.u.
2'F-ANA at 1 2 4 5 8 12 15: 159 a.u.
2'F-ANA at 1 4 5 9 12 15: 103 a.u.
2'F-ANA at 1 2 5 7 8 9 10 15: 46.5 a.u.
2'F-ANA at 5 9 15: 141 a.u.
2'F-ANA at 1 8: 262 a.u.
2'F-ANA at 3 7 8 12 13 15: 1330 a.u.
2'F-ANA at 1 2 5 6 7 9 10 12 13 14: 46.3 a.u.
2'F-ANA at 1 3 8 9 10 11: 82.7 a.u.
2'F-ANA at 3 4 6 7 9 11 13 14 15: 217 a.u.
2'F-ANA at 1 2 6 12 14: 73.8 a.u.
2'F-ANA at 1 2 5 6 7 8 10 13 14 15: 54.5 a.u.
2'F-ANA at 3 7 8 9 10 11 12 14 15: 375 a.u.
2'F-ANA at 1 2 5 6 12 13 15: 74.8 a.u.
2'F-ANA at 4 5 8 14 15: 42.7 a.u.
2'F-ANA at 2 4 5 8 9 10 12 13 14 15: 54.2 a.u.
2'F-ANA at 4 5 6 7 9 13: 94.9 a.u.
2'F-ANA at 2 4 5 7 8 13 14 15: 45.4 a.u.
2'F-ANA at 1 4 6 8 9 10 11 13 14: 46 a.u.
2'F-ANA at 1 2 4 5 15: 56.8 a.u.
2'F-ANA at 1 3 4 5 9 10 11 12 13 14 15: 45.9 a.u.

Block 4
Target: Ras GTPase-activating protein-binding protein 1, full length (G3BP1, Homo sapiens, UniProt Q13283)
Chain of UniProt Q13283 (whole entry, looked up): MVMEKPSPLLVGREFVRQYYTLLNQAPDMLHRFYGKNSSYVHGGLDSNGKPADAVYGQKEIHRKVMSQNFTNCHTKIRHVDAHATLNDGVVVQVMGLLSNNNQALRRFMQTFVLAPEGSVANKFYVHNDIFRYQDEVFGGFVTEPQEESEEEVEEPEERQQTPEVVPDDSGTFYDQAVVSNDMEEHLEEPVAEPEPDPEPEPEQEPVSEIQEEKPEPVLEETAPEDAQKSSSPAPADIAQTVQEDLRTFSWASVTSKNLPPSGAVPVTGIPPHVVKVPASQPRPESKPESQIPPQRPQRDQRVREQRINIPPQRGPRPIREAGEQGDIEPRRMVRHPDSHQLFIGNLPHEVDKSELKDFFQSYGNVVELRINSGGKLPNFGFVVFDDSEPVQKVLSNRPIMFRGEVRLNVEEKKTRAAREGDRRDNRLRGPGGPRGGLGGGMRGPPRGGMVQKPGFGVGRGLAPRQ
Method: RNA Bind-n-Seq
Molecule type: RNA
Matrix: in vitro
Tested at: 200 nM
Setting: whole 134-nt RNA, ends assumed
Together with: 150 mM KCl
Baseline: input library
Reading: higher = stronger binding
Quantity: log2 enrichment
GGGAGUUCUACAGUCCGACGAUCGCAGGAAGUACAAACAAAUGGAAAUGCUUCGGAUAGUGGCAGGGGUGGGGGUUGCUAAGGAAAGGGUGGGAUGGGAGUGGGUAAAGAGUUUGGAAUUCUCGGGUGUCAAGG: 0.949
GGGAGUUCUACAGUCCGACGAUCAGUCCUGUGCUACACAUCGUAUGUACCGAAUCGGCCCCGGGGCCCCGGGGCCCCGGGGAAAGUAUUAUGUUACGCCGUUCGGAUCUGCACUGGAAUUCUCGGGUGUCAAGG: -0.833
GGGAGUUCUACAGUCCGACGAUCAAGUCCUGUGCUACACAUCGUAUGUACCGAAUCGGUUUUGGGGUUUUGGGGUUUUGGAAAGUAUUAUGUUACGCCGUUCGGAUCUGCACUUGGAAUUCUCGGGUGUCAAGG: -0.701
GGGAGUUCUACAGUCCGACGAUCAGUCCUGUGCUACACAUCGUAUGUACCGAAUCAAACCCAAAUUUUUAAACCCCCAAAAAAGUAUUAUGUUACGCCGUUCGGAUCUGCACUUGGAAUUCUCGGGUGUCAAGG: -0.395
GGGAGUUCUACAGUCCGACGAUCAGUCCUGUGCUACACAUCGUAUGUACCGAAUCGGAAAAAAAGGUUUUUGGAAAAAGGAAAGUAUUAUGUUACGCCGUUCGGAUCUGCACUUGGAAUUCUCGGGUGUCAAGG: -1.73
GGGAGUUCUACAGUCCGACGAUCUCCUGUGCUACACAUCGUAUGUACCGAAUCAAACCCAAACCCCCCCAAAUUUUUUUAAAAAAGUAUUAUGUUACGCCGUUCGGAUCUGCAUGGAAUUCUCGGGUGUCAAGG: -0.0789
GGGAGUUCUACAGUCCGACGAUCCUCAAGUCCUGUGCUACACAUCGUAUGUACCGAAUCGGGCGGGGCGGGGCGGGGAAAGUAUUAUGUUACGCCGUUCGGAUCUGCACUUCCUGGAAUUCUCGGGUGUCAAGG: 1.47
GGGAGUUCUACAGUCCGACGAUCGUCCUGUGCUACACAUCGUAUGUACCGAAUCAAAUUUUUUUAAACCCAAACCCCCAAAAAAGUAUUAUGUUACGCCGUUCGGAUCUGCACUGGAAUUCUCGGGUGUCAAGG: -0.477
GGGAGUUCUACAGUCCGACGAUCACCAUGCAGGUGGGUAUCUUUGGGAAGUGGGGCAAGGGGGGGAUAGGGAGGGGGGUAACACUUUGGGAACAGGUGGUCCCAGGUCGUUUCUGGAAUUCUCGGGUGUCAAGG: 1.04
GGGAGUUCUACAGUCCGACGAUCUGUGAAAGAAAACCGAAGUUUUAAAUGACUUCUCAUGGUUAUUUUUUUUCCUUUCUCUUGCAGGACAUUGGGGACACAUUGAGCAGGUAUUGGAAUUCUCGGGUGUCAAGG: 0.148
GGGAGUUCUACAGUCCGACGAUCAAGUCCUGUGCUACACAUCGUAUGUACCGAAUCGGGGUGGGGAAAAAGGGGUGGGGAAAGUAUUAUGUUACGCCGUUCGGAUCUGCACUUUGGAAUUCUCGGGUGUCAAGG: 0.628
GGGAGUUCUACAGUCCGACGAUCCACAGACAACACGCACCCACACAGACACAGAGGGAAGGGGUUGGGAUGGGGACAGGGUGCCCAGCAGGGCGGGGUAGGACCCCAGCCCCUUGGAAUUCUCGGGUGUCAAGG: 1.59
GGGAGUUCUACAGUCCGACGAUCUGGGAGGUGGAUUUUGUUUAUUUUUUUAGCUCAUUUCCAGGGGUGGGAAUUUUUUUUUAAUAUGUGUCAUGAAUAAAGUUGUUUUUGGAAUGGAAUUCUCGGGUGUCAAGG: 0.562
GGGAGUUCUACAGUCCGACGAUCUAUUCCAAUGUCUGUGGGAAUAAUUGACACAAGGACGAAUCCAAGCCAGUUAAAUGCGGUUGAAUUUCUGUGGGACCCAGCAAAACGCACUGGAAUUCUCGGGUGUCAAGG: -0.0623

Block 5
Target: Histone acetyltransferase KAT6A, winged helix 1, GST fusion (KAT6A, Homo sapiens, UniProt Q92794, residues 1-85)
Method: protein binding microarray
Molecule type: double-stranded DNA, one strand shown
Matrix: in vitro
Tested at: not given
Setting: 8-mer, flanks averaged, mean of 2 arrays, mostly near background
Baseline: not given
Reading: higher = stronger binding
Quantity: E-score
Target sequence (chain): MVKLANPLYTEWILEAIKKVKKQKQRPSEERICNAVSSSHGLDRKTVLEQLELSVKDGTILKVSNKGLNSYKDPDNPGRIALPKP
CTAGCTTA: -0.158
ATACTGAG: 0.00549
ACATACGG: 0.229
AGACAGCA: -0.146
CCCAGGGA: -0.181
TGGCCCAA: -0.207
ACAGGGGG: -0.129
GGAAGCAA: -0.157
GTGCGCCA: 0.301
CACCAAAC: -0.141
GACGGTGA: 0.148
GTATGAAA: -0.0164
ATATGACA: -0.234
CAGCCATC: -0.0626
ACCAAAGG: -0.126
CCGTAAGC: 0.207
AACCAACC: -0.0839
GATACGTA: 0.00396
GTGTGGAA: -0.103
AGGCACAG: -0.232
CTTTTTAC: -0.0743
GGGCTTGA: -0.176

Some of these lines once more (block 5):
GACGGTGA: 0.148
GTATGAAA: -0.0164
ATATGACA: -0.234
CAGCCATC: -0.0626
ACCAAAGG: -0.126
CCGTAAGC: 0.207
AACCAACC: -0.0839
GATACGTA: 0.00396
GTGTGGAA: -0.103
AGGCACAG: -0.232
CTTTTTAC: -0.0743
